Published values pooled from the literature.
Numbered parts are unrelated; each lists some results of a single study. Positions count from the first letter of the parent shown.

Series 1
Target: ATF7, bZIP domain (human)
Method: DHFR protein complementation
Medium: yeast
Setting: single substitutions, most at no-binding floor
Reference: wild-type JUN-FOS pair
Reading: higher = stronger binding
Parent: JUN, bZIP domain (human); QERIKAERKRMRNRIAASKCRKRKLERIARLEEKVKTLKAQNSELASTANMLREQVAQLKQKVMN; partner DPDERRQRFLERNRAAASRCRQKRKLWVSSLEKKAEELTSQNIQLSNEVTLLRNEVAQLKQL
With `I28G` the binding fitness was -1.21 natural log.
`K39R` gave a binding fitness of -0.803 natural log.
With `A49S` the binding fitness was -1.46 natural log.
`Q41D` has a binding fitness of -1.28 natural log.
`M51C` has a binding fitness of -1.15 natural log.
With `V56W` the binding fitness was -1.4 natural log.
`K34C` gave a binding fitness of -1.15 natural log.
With `A57H` the binding fitness was -0.972 natural log.
`N42C` gave a binding fitness of -1.26 natural log.
`E32Y` gave a binding fitness of -1.19 natural log.
`K34Y` gave a binding fitness of -1.07 natural log.
`R30V` gave a binding fitness of -0.796 natural log.
`Q55M` has a binding fitness of -0.997 natural log.
For `E54L`, the binding fitness was -1.16 natural log.

Series 2
Target: ABI1, truncated, D143A, DHFR fusion (Arabidopsis thaliana)
Method: DHFR PCA, deep sequencing
Medium: yeast
Setting: methotrexate growth selection, single substitutions
Together with: (+)-ABA 2500 µM
Reference: wild-type fitted maximum
Reading: higher = stronger binding
Parent: PYL1, truncated, DHFR fusion (Arabidopsis thaliana); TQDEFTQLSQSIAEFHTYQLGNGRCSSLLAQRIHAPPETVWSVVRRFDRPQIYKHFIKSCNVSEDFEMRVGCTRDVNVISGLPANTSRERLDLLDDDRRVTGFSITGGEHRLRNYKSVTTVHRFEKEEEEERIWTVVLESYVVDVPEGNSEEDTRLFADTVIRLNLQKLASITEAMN; partner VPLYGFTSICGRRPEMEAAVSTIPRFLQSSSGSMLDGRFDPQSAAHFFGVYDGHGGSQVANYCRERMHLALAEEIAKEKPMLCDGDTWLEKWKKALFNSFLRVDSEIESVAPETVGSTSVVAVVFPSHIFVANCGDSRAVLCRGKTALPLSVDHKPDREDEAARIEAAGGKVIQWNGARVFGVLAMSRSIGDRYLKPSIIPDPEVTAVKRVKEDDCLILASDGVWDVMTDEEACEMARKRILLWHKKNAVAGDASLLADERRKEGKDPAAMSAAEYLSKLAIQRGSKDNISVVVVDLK
`R32T` — result for “relative binding score”: 99.1%.
Under “relative binding score”, `R24Q` is recorded as 104%.
Under “relative binding score”, `K168H` is recorded as 93%.
`F56K` — result for “relative binding score”: -6.17%.
For `Q7L`, “relative binding score” read 101%.
Under “relative binding score”, `V121H` is recorded as 12.9%.
For `L82E`, “relative binding score” read 8.77%.
`H55Y`: “relative binding score” 93%.
`K168S` — result for “relative binding score”: 97.7%.
`R46W` — result for “relative binding score”: 80.8%.
For `T154S`, “relative binding score” read 84.1%.
`R111W`: “relative binding score” 63.9%.
For `Q31C`, “relative binding score” read 73.9%.
`G23D` — result for “relative binding score”: 98.1%.
`M176K` — result for “relative binding score”: 103%.
`T106R`: “relative binding score” 98.5%.

Series 3
Target: RNA binding protein fox-1 homolog 2, RRM domain, GST-SBP tag (RBFOX2, Homo sapiens, UniProt O43251-10, residues 100-194)
Method: RNA Bind-n-Seq
Molecule type: RNA
Medium: in vitro
Concentration: 365 nM
Setting: natural RNA segment, single round, ends assumed
Reference: no-protein control
Reading: higher = stronger binding
Construct (chain): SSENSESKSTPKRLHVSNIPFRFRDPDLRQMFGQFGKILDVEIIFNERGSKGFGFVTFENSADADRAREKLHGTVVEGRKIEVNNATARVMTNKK
For `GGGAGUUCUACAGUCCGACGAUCAGAAAACAGGGGGCCUAAAGAAUGUCCCCCACCCCUUGGCCUCUGCCUCCUUGGCCCCACAUUUCUGCAAACAUAAAUAUUUACGGAUAGAUUGCUAGGUAGAUAGACACUGGAAUUCUCGGGUGCCAA`, “RBNS enrichment (R)” read 1.08.
Under “RBNS enrichment (R)”, `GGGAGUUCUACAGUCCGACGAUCAAAUGCAAUGCUUCCUACCCCCGUCCUGUCACAGGCAGUCUGAGGACUCACCUUCACACGUGAGACUUCGCUCUUACCCCAGCCCCCACCGCUGGAGGGGUUUCAAUCCCUGGAAUUCUCGGGUGCCAA` is recorded as 0.382.
`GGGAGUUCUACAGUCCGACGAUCACAUUUGAAACAAGCUAACCCUGGGGAGUCUAUGGUCUCUUCACUCAGGUCUCAGCUAUAAUUCUGUUAUAUGAGGGGCAGUGGACAGUUCCCUAUGCCAACUCACGACUUGGAAUUCUCGGGUGCCAA`: “RBNS enrichment (R)” 0.268.
Under “RBNS enrichment (R)”, `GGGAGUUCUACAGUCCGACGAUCGAAAGUGGGACCUAGGGCCCUGGGAGGACACCUAGCAACAGCAGGUUCCAUUUCACCUCAGAUGGCAGCUUGCCUGGCAGUGGACUUAGAGUGUUCUAGUCUGAUGUAUGUGGAAUUCUCGGGUGCCAA` is recorded as 0.494.
Under “RBNS enrichment (R)”, `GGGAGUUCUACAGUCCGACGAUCAACUGCUUGUUUUCGCUCACUUGCCUCCCCUUCAGACAUGUAAGUGCAGUCUCCAAAGCUUGACGUUGCUAAUGACACCUGCCUCGUUGCUUUGCUUAGUUGGCAAAAGCUGGAAUUCUCGGGUGCCAA` is recorded as 1.19.
`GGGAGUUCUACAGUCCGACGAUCGAAAAUGAUACUUGUAAAUCUUCUAUUUAACCAUUUGUAAAAUCUAAAUCAUACCCCACUCCCCACUCCCAUUUCGAUUCUCCAGCGGCUCCUUUUAGUUUGUUGUCUUGUGGAAUUCUCGGGUGCCAA` — result for “RBNS enrichment (R)”: 3.11.
Under “RBNS enrichment (R)”, `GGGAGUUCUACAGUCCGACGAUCGAUUUCUUUCUUUGCACCAAAGACAUCAGUCUCCAACAUGUUUCUGUUUUGUUGUUUGAUUCAGCAAAAAUCUCCCAGUGACAACAUCGCAAUAGUUUUUUACUUCUCUUUGGAAUUCUCGGGUGCCAA` is recorded as 0.527.
`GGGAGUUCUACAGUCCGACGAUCAACACAGCUAAAGAUCUUCUGAUAUUAUCAGCAAGGGAUGCAAGGACUUUAUUGGAAUCUGGAGAGUUUAACUGCCUUCUCUUGGUCUCCUCACUUACUUCUUAUGAAGUUGGAAUUCUCGGGUGCCAA`: “RBNS enrichment (R)” 0.187.
`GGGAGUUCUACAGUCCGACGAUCACGGGUGGAGGACCUCUAGGUGCGUAUGUAUUUCCCUUGGAAGGAACAGGAAGUUUGCUCUAAGAUGAGACUGUUGUUGUCUGGACUUCCUCUAGAAAUCCCAGCAGAAUUGGAAUUCUCGGGUGCCAA`: “RBNS enrichment (R)” 1.14.
For `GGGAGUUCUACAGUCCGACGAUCAGAGUGUCCUUUUAGGUGGGGCGGCUAUUCUAAAAGUGUCUUUCUAUCACUGUUAAGGGGGGGGGAAAGUGAGGUUCGAGGAUGACGUAGGUAACUCUCCCCUCCCAAGUUGGAAUUCUCGGGUGCCAA`, “RBNS enrichment (R)” read 0.91.
Under “RBNS enrichment (R)”, `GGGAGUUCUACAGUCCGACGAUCUCUUUCCUGAUGGGGAUCUCUGUGUUCUUGAGCUCUGAUUAUGUAAUGAAGGCUGACACAGUCCCCCUGCUGAUCAUUUUGCUUUAUAUAUUAAAAAAUGCUGCAAAAAUUGGAAUUCUCGGGUGCCAA` is recorded as 0.58.
Under “RBNS enrichment (R)”, `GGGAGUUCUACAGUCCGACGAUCAUUAAAAUACAAAGCAGUAAAAUGUCAUUUGCUGUACGAUUAUUAACUAUAAAUCUGGCUAUUUCUUCAUCCAGUAACCUAAAUAUGAUAUAUACUUUAUAUUGGGUAUGUGGAAUUCUCGGGUGCCAA` is recorded as 0.36.

Series 4
Target: Histone acetyltransferase KAT6A, both winged helices, GST fusion (KAT6A, Homo sapiens, UniProt Q92794, residues 1-181)
Method: protein binding microarray
Molecule type: double-stranded DNA, one strand shown
Medium: in vitro
Concentration: not given
Setting: 8-mer, flanks averaged, mean of 2 arrays, mostly near background
Reference: not given
Reading: higher = stronger binding
Target sequence (chain): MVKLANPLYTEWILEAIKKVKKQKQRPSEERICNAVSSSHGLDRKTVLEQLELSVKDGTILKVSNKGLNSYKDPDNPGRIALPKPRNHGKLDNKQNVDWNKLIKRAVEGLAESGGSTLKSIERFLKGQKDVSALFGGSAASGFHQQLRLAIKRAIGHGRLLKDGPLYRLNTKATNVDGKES
The E-score of `AAGACCTA` is reported as -0.0554.
`AACCACCC` has an E-score of -0.0786.
`CTTACGAC` has an E-score of -0.0268.
For `AAGACCAG`, the E-score was -0.233.
For `ACCGGGGA`, the E-score was 0.159.
`CGCCATGA` has an E-score of 0.053.
`GCCTGGTA` gave an E-score of -0.172.
`AATCAACA` has an E-score of -0.145.
The E-score of `AAATTGAT` is reported as -0.0519.
`CATCAAGA` has an E-score of -0.102.
`TAATGATA` gave an E-score of 0.0237.
The E-score of `AGGACGTA` is reported as -0.157.
For `GGCGTCAA`, the E-score was 0.0555.
The E-score of `GCAGGGCC` is reported as 0.0159.
With `AACAACGT` the E-score was -0.0284.
With `AGGTCCGC` the E-score was 0.125.
`CGTTCTCC` has an E-score of -0.0194.
`CATATCCA` has an E-score of -0.11.
With `ACCACAGA` the E-score was -0.164.
With `ATGGCAGG` the E-score was -0.124.
`CTACCTTA` gave an E-score of -0.0995.
The E-score of `CGGTCTAC` is reported as 0.195.
With `CGGACCTA` the E-score was 0.0109.
The E-score of `GCTTGTCA` is reported as 0.108.
`CTCGGTGA` has an E-score of -0.0241.

Series 5
Target: CCNE2, cyclin fold, Cln2 fusion (human)
Method: yeast growth competition, sequencing
Medium: yeast
Setting: strong parent motif
Reference: not given
Reading: higher = stronger binding
Parent: CDKN1A docking peptide (human); SKACRRLFGPVDS; partner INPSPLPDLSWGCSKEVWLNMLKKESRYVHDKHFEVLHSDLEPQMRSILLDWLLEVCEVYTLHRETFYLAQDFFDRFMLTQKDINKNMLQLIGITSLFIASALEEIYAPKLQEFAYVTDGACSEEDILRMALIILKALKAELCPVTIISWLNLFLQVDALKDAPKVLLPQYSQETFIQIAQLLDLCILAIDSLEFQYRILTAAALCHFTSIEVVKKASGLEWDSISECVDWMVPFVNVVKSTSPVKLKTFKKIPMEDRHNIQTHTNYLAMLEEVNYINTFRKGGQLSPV
`SKACRRLFAPVDS [G9A]` — result for “normalised enrichment score”: 4.42.
Under “normalised enrichment score”, `SKFCRRLFGPVDS [A3F]` is recorded as 1.18.
`SKACRRLFGPCDS [V11C]`: “normalised enrichment score” 4.12.
For `SKACRRLFGPVMS [D12M]`, “normalised enrichment score” read 2.76.
`SKACRRTFGPVDS [L7T]` — result for “normalised enrichment score”: 0.141.
Under “normalised enrichment score”, `SKACRRAFGPVDS [L7A]` is recorded as 0.135.
`SKACRRLFEPVDS [G9E]` — result for “normalised enrichment score”: 4.77.
For `SKACRSLFGPVDS [R6S]`, “normalised enrichment score” read 0.935.
For `SKYCRRLFGPVDS [A3Y]`, “normalised enrichment score” read 1.6.
For `SKACRRLFGPIDS [V11I]`, “normalised enrichment score” read 3.89.
For `SKACRRLFGWVDS [P10W]`, “normalised enrichment score” read 1.99.
`SKACRRLFLPVDS [G9L]` — result for “normalised enrichment score”: 3.81.
Under “normalised enrichment score”, `SKACRRLFVPVDS [G9V]` is recorded as 4.3.
`SKACRRLFGEVDS [P10E]`: “normalised enrichment score” 4.26.
`SKACPRLFGPVDS [R5P]`: “normalised enrichment score” -0.143.
For `SKACRRLFGPVVS [D12V]`, “normalised enrichment score” read 2.97.
For `SKACRQLFGPVDS [R6Q]`, “normalised enrichment score” read 3.49.
`SKACRRLWGPVDS [F8W]` — result for “normalised enrichment score”: 2.38.
`SKACRRLEGPVDS [F8E]`: “normalised enrichment score” -0.405.
Under “normalised enrichment score”, `SKAMRRLFGPVDS [C4M]` is recorded as 0.762.

Some of these lines once more (series 1):
`E32Y` gave a binding fitness of -1.19 natural log.
`K34Y` gave a binding fitness of -1.07 natural log.
`R30V` gave a binding fitness of -0.796 natural log.
`Q55M` has a binding fitness of -0.997 natural log.
For `E54L`, the binding fitness was -1.16 natural log.
